Results from different studies.
Protocols differ between the studies behind these lines.
Organism: Mycolicibacterium smegmatis

CN(C)C(=N)N=C(N)N — MIC (microbial growth; 700084): > 512 µM
CCc1ccc(-c2c[nH]c(N)n2)cc1 — IC50 (biofilm formation, crystal violet): 29 µM
EVEPSDTIENVKAKIQ — MIC (peptide, mc^2155, 7H9 medium; overnight, 37 °C): 50 µM
NCC[C@H](O)C(=O)N[C@@H]1C[C@H](N)[C@@H](O[C@H]2O[C@H](CN)[C@@H](O)[C@H](O)[C@H]2O)[C@H](O)[C@H]1O[C@H]1O[C@H](CO)[C@@H](O)[C@H](N)[C@H]1O — MIC (wild type): 0.06 µg/mL
COc1ccc(-c2c[nH]c(N)n2)cc1 — IC50 (biofilm formation, crystal violet): 30.1 µM
CC1CCC(C(C)C)C(OC(=O)Cn2c[n+](CC(=O)OC3CC(C)CCC3C(C)C)c3ccccc32)C1 (stereo not drawn) — MIC (microbial growth): 5 µM
CCCCCc1ccc(-c2c[nH]c(N)n2)cc1 — IC50 (biofilm formation, crystal violet): 13.6 µM
NC[C@H]1O[C@H](O[C@H]2[C@H](O)[C@@H](O[C@H]3O[C@H](CO)[C@@H](O)[C@H](N)[C@H]3O)[C@H](N)C[C@@H]2N)[C@H](N)C[C@@H]1O — MIC (wild type): 0.12 µg/mL
CC1CCC(C(C)C)C(OC(=O)Cn2c(-c3ccc(Br)cc3)[n+](C)c3ccccc32)C1 (stereo not drawn) — MIC (microbial growth): 25 µM
